Measured values from different studies.
Each numbered part is a random draw from the data of one study; scales do not carry over between parts. Positions count from the first letter of the parent shown.

Set 1
Target: Probable WRKY transcription factor 11, DNA-binding domain (WRKY11, Arabidopsis thaliana, UniProt Q9SV15, residues 228-325)
Technique: DNA-protein interaction ELISA
Molecule type: double-stranded DNA, one strand shown
Medium: in vitro, bacterial lysate
Tested at: not given
Notes: whole dsDNA probe, crude lysate protein
Reference: highest signal in screen
Direction: higher = stronger binding
Construct (chain): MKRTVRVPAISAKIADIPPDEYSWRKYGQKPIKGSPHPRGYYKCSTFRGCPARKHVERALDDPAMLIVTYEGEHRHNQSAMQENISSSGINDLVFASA
Sequence | relative absorbance
AAAAAAGAGTGGTTTATTAATGTATAAAAA | 17.6 % of maximum
AAAAAAACCCGGCCGCCATGGTAGTAAAAA | 15.8 % of maximum
AAAAAATGCAACGCTCCTTTCCCGCTAAAA | 13.3 % of maximum
AAAAAATATGTTTTCGCTTTATTCTTAAAA | 13 % of maximum
AAAAAATGGTCGATCCGCATGCAGTTAAAA | 13 % of maximum
AAAAAACGCCGGACAATCAGGCGCTCAAAA | 14.4 % of maximum
AAAAAATTCCGGCTTGACGCTGCATAAAAA | 16.7 % of maximum
AAAAAAAGGGTGCTATTCGTCGACACAAAA | 15.3 % of maximum

Set 2
Target: Sal-like protein 4, full length isoform A (SALL4, Homo sapiens, UniProt Q9UJQ4, residues 1-1053)
Sequence of UniProt Q9UJQ4 (whole entry, looked up): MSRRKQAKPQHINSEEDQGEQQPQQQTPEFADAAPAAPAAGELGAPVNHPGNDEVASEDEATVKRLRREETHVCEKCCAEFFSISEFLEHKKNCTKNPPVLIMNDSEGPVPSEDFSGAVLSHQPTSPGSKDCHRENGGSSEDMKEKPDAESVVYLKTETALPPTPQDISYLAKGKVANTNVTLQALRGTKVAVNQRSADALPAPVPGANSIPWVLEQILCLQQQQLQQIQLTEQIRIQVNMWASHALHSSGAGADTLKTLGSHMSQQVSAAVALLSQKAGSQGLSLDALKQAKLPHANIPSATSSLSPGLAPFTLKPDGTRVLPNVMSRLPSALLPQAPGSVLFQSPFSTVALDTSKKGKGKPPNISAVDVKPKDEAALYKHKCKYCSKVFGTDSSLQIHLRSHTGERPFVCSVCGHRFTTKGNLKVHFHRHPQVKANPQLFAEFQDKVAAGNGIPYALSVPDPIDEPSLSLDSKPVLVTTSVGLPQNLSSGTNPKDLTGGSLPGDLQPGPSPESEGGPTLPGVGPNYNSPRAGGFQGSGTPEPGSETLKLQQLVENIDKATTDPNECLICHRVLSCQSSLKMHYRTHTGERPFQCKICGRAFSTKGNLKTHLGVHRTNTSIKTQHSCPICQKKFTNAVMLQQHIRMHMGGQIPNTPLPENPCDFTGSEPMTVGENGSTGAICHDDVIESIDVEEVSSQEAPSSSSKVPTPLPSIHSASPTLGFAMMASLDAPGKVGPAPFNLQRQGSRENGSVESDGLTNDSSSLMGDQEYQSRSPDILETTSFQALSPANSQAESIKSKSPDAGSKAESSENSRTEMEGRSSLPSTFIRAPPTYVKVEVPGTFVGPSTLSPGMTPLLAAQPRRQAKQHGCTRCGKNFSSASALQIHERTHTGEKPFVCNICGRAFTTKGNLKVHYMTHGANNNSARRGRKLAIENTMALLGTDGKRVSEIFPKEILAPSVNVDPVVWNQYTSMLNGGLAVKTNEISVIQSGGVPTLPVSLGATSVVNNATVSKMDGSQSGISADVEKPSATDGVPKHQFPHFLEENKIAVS
Technique: universal PBM
Molecule type: double-stranded DNA, one strand shown
Medium: in vitro
Tested at: 600 nM
Notes: 8-mer, flanks averaged, mean of replicates
Direction: higher = stronger binding
Sequence | E-score
AGTGAGAG | -0.142
CGCTCAAA | -0.144
AAAAAGTA | 0.283
TCCAAGCA | -0.0141
GCAAGAGC | -0.179
TTCATAAA | 0.419
GTGAAGCA | -0.0479
ACCGGTAA | -0.0359

Set 3
Partner: ARF12 500-593 (Arabidopsis thaliana, UniProt Q9XID4)
Technique: two-hybrid
Reference: out of 4 tests
Direction: higher = firmer interaction
B1: IAA34 (Arabidopsis thaliana, UniProt Q9C5X0); chain MYCSDPPHPLHLVASDKQQKDHKLILSWKKPTMDSDPLGVFPNSPKYHPYYSQTTEFGGVIDLGLSLRTIQHEIYHSSGQRYCSNEGYRRKWGYVKVTMDGLVVGRKVCVLDHGSYSTLAHQLEDMFGMQSVSGLRLFQMESEFCLVYRDEEGLWRNAGDVPWNEFIESVERLRITRRNDAVLPF
B2: IAA32 (Arabidopsis thaliana, UniProt Q8RYC6); chain MDPNTPADFFKGSSKFHTYYSQTKKGGGVIDLGLSLRTIQHETYLPPARMIGLDGYGELIDWSQPSYNSITQLKSEDTGHQRLAQGYYNNEGESRGKYAYVKVNLDGLVVGRKVCLVDQGAYATLALQLNDMFGMQTVSGLRLFQTESEFSLVYRDREGIWRNVGDVPWKEFVESVDRMRIARRNDALLPF
B3: IAA28 (Arabidopsis thaliana, UniProt Q9XFM0); chain MEEEKRLELRLAPPCHQFTSNNNINGSKQKSSTKETSFLSNNRVEVAPVVGWPPVRSSRRNLTAQLKEEMKKKESDEEKELYVKINMEGVPIGRKVNLSAYNNYQQLSHAVDQLFSKKDSWDLNRQYTLVYEDTEGDKVLVGDVPWEMFVSTVKRLHVLKTSHAFSLSPRKHGKE
B4: IAA19 (Arabidopsis thaliana, UniProt O24409); chain MEKEGLGLEITELRLGLPGRDVAEKMMKKRAFTEMNMTSSGSNSDQCESGVVSSGGDAEKVNDSPAAKSQVVGWPPVCSYRKKNSCKEASTTKVGLGYVKVSMDGVPYLRKMDLGSSQGYDDLAFALDKLFGFRGIGVALKDGDNCEYVTIYEDKDGDWMLAGDVPWGMFLESCKRLRIMKRSDATGFGLQPRGVDE
B5: ARF5 788-902 (Arabidopsis thaliana, UniProt P93024); chain ATPRVRTYTKVQKTGSVGRSIDVTSFKDYEELKSAIECMFGLEGLLTHPQSSGWKLVYVDYESDVLLVGDDPWEEFVGCVRCIRILSPTEVQQMSEEGMKLLNSAGINDLKTSVS
B6: IAA15 (Arabidopsis thaliana, UniProt Q9C966); chain MSPEEYVRVWPDSGDLGGTELTLALPGTPTNASEGPKKFGNKRRFLETVDLKLGEAHENNYISSMVTNDQLVGWPPVATARKTVRRKYVKVALDGAAYLRKVDLGMYDCYGQLFTALENMFQGIITICRVTELERKGEFVATYEDKDGDLMLVGDVPWMMFVESCKRMRLMKTGDAIGL
Construct (chain): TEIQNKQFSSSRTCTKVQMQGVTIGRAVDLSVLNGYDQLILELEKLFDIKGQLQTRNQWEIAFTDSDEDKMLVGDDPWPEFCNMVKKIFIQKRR
Molecule | positive tests
B1 (IAA34) | 1
B2 (IAA32) | 1
B3 (IAA28) | 0
B4 (IAA19) | 0
B5 (ARF5 788-902) | 1
B6 (IAA15) | 0

Further values, each from its own experiment
Starting sequence: viral docking peptide; KKVKRRLFETREL
Variant | target | assay | test system | setting | scale | measurement | value
KAVKRRLFETREL [K2A] | CCND3, cyclin fold, Cln2 fusion (human) | yeast growth competition, sequencing | yeast | weak parent motif | reference: not given, higher = stronger binding | normalised enrichment score | 0.117

For quick reference, copied from above (set 1):
Sequence | relative absorbance
AAAAAACGCCGGACAATCAGGCGCTCAAAA | 14.4 % of maximum
AAAAAATTCCGGCTTGACGCTGCATAAAAA | 16.7 % of maximum
AAAAAAAGGGTGCTATTCGTCGACACAAAA | 15.3 % of maximum
